# Results from different studies.
# Parts stem from different laboratories: compare values within a part only.
# Sequence of UniProt Q14164 (whole entry, looked up): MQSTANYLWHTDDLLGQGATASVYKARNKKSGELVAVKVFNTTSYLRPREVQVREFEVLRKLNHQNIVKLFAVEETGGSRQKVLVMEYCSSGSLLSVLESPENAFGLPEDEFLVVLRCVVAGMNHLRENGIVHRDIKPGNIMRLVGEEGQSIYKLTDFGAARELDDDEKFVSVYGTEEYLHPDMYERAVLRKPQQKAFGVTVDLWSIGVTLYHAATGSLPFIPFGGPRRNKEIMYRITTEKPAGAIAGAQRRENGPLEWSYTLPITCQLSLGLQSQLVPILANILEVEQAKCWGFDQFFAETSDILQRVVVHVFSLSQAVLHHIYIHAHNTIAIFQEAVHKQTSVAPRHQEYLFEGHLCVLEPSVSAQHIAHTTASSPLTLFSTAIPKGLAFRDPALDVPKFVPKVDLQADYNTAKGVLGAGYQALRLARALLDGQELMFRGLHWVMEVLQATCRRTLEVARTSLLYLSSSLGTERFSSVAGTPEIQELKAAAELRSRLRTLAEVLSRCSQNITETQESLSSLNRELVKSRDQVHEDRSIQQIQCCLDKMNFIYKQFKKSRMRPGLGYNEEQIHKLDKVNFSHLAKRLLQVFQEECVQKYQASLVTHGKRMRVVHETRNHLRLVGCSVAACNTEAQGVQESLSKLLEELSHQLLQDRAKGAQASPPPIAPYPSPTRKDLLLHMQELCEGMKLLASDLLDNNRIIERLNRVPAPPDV

# Series 1
# Species: mouse
# Matrix: microsomes or S9
# Concentration: 2 µM
# Time: 0.5 h
Compound,remaining compound [%]
OC1=C2C(=Nc3ncnn3C2c2cn(-c3ccccc3)nc2-c2cccnc2)CCC1 (stereo not shown),16.3
COc1ccc2ccccc2c1CNCc1ccc(F)cc1,0.337
COc1cc(NC(=O)c2c(OC)cc(=O)n3c2CCCC3)cc(OC)c1OC,94.2
CN(C)c1cncc(-c2cccc(-n3cccn3)c2)n1,1.6
Clc1nc2cccnc2n2nc(-c3ccco3)cc12,1.32
NC(=O)c1c(-c2ccc(Cl)cc2Cl)csc1NC(=O)CC1(CC(=O)O)CCCC1,76.4
O=c1[nH]c2ccc(NCc3ccc(-c4ccccc4)cc3)cc2[nH]1,34.5
COc1cc2c(cc1OC)/C(=N\c1ccccc1)N(Cc1ccc(F)c(F)c1)CC2,0.125

# Series 2
# Target: Activin receptor type-1-like (ACVRL1, Homo sapiens, UniProt P37023)
# Sequence of UniProt P37023 (whole entry, looked up): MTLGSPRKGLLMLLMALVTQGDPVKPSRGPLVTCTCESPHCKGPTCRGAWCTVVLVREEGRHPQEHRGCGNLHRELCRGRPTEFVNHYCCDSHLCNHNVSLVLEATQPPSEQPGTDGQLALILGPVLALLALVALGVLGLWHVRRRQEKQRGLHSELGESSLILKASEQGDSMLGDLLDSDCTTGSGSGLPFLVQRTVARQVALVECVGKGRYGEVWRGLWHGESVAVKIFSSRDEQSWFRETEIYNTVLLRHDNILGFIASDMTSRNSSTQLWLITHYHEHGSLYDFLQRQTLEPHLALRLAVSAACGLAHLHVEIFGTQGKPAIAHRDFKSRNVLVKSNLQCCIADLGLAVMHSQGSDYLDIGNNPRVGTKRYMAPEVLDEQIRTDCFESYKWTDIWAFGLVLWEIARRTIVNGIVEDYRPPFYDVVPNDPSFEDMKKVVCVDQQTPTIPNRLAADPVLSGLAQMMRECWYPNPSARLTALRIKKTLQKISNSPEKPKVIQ
# Effect on: enzyme activity
# Mode: inhibitor
# Concentration: 0.5 µM
# Relative to: control
Structure (SMILES),remaining activity [%]
O=C1NC(=O)C(c2cn(CCCO)c3ncccc23)=C1c1cnccn1,105
COc1cc2ncnc(Nc3ccc(F)c(Cl)c3)c2cc1OCCCN1CCOCC1,96.9
COc1ccc(OC)c2c(=S)c3ccccc3[nH]c12,99
COc1cc2ncnc(Nc3ccc(Oc4ccccc4)cc3)c2cc1OC,100
COc1ccc(CNC(=O)Nc2ncc([N+](=O)[O-])s2)cc1,106
Cc1cccc(-c2[nH]c(C(C)(C)C)nc2-c2ccc3c(c2)OCO3)n1,127
COc1cc2nccc(Oc3ccc(NC(=S)NC(=O)c4ccccc4C)cc3)c2cc1OC,91.7
Cc1ccc(Nc2nccc(N(C)c3ccc4c(C)n(C)nc4c3)n2)cc1S(N)(=O)=O,102
Cn1sc(=O)n(Cc2ccccc2)c1=O,117
CCOC(=O)c1c(C)[nH]c(/C=C2\C(=O)Nc3ccccc32)c1C,94.8
OCC(O)CCON=C1C(c2c(O)[nH]c3ccccc23)=Nc2ccccc21 (stereo not shown),103
Nc1[nH]nc2nc3ccccc3nc12,105
NCCNc1ncc(C(N)=O)c(Nc2cccc(C(F)(F)F)c2)n1,99.4
O=C(O)c1ccc2c3c1cccc3c(=O)n1c3ccccc3nc21,103
O=C1NC(=O)C(c2cn(CCCn3ccnc3)c3ccccc23)=C1Nc1ccccc1,95.9

# Series 3
# Target: Calcium/calmodulin-dependent protein kinase type II subunit alpha (CAMK2A, Homo sapiens, UniProt Q9UQM7)
# Sequence of UniProt Q9UQM7 (whole entry, looked up): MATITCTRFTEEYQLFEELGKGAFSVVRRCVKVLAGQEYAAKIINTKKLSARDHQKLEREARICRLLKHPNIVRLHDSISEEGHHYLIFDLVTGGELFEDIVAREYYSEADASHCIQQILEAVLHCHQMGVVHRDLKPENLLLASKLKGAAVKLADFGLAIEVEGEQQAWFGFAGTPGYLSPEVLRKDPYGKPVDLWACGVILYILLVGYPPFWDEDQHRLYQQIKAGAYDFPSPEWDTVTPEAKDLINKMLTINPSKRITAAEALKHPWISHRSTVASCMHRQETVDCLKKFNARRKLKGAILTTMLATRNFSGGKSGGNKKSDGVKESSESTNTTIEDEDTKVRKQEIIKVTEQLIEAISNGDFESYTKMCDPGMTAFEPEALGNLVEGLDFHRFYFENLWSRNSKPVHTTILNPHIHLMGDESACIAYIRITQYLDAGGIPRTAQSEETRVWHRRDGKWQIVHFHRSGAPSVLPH
# Effect on: enzyme activity
# Mode: inhibitor
# Concentration: 10 µM
SMILES,inhibition [%]
Cn1c(=O)ccn([C@@H]2O[C@H](CO)[C@@H](O)[C@H]2O)c1=O,4
O=C(O)[C@H]1CSC(c2nc3ccc(O)cc3s2)=N1,-16
O=c1c(-c2ccc(O)cc2)coc2cc(O[C@@H]3O[C@H](CO)[C@@H](O)[C@H](O)[C@H]3O)cc(O)c12,-1
CCN(CC)CCOc1ccc(/C(=C(/Cl)c2ccccc2)c2ccccc2)cc1,-6
CC(C)(C)c1cc(NC(=O)Nc2ccc(-c3cn4c(n3)sc3cc(OCCN5CCOCC5)ccc34)cc2)no1,11
CC(=O)[C@]1(O)Cc2c(O)c3c(c(O)c2[C@@H](O[C@H]2C[C@H](N)[C@H](O)[C@H](C)O2)C1)C(=O)c1c(O)cccc1C3=O,31

# Mixed results
Structure (SMILES),tested on,assay,setting,how to read,measurement,result
CN(C)C(=O)/C(C#N)=C/c1ccc(-c2nc3cnc4c(ccn4C)c3n2C2CCCCC2)o1,sample B colorectal tumour organoid,,0.1 µM,relative to: DMSO,viability,121%
CN(C)c1ncnc(-c2ccc3nc(Nc4cc(CN5CCN(C(=O)CC(F)(F)F)CC5)ccn4)[nH]c3c2)c1Cl,"Inhibitor of nuclear factor kappa-B kinase subunit epsilon (IKBKE, Homo sapiens, UniProt Q14164)","target engagement in cells, BRET",,,IC50,> 27 µM

# Excerpt of the above (mixed results):
Structure (SMILES),tested on,assay,setting,how to read,measurement,result
CN(C)C(=O)/C(C#N)=C/c1ccc(-c2nc3cnc4c(ccn4C)c3n2C2CCCCC2)o1,sample B colorectal tumour organoid,,0.1 µM,relative to: DMSO,viability,121%
CN(C)c1ncnc(-c2ccc3nc(Nc4cc(CN5CCN(C(=O)CC(F)(F)F)CC5)ccn4)[nH]c3c2)c1Cl,"Inhibitor of nuclear factor kappa-B kinase subunit epsilon (IKBKE, Homo sapiens, UniProt Q14164)","target engagement in cells, BRET",,,IC50,> 27 µM
